Assay results from different studies.
A part holds a random share of what one study measured. Several values in a cell are separate wells, animals, samples, runs or records.
UniProt P42336, sequence (whole entry, unmodified, looked up): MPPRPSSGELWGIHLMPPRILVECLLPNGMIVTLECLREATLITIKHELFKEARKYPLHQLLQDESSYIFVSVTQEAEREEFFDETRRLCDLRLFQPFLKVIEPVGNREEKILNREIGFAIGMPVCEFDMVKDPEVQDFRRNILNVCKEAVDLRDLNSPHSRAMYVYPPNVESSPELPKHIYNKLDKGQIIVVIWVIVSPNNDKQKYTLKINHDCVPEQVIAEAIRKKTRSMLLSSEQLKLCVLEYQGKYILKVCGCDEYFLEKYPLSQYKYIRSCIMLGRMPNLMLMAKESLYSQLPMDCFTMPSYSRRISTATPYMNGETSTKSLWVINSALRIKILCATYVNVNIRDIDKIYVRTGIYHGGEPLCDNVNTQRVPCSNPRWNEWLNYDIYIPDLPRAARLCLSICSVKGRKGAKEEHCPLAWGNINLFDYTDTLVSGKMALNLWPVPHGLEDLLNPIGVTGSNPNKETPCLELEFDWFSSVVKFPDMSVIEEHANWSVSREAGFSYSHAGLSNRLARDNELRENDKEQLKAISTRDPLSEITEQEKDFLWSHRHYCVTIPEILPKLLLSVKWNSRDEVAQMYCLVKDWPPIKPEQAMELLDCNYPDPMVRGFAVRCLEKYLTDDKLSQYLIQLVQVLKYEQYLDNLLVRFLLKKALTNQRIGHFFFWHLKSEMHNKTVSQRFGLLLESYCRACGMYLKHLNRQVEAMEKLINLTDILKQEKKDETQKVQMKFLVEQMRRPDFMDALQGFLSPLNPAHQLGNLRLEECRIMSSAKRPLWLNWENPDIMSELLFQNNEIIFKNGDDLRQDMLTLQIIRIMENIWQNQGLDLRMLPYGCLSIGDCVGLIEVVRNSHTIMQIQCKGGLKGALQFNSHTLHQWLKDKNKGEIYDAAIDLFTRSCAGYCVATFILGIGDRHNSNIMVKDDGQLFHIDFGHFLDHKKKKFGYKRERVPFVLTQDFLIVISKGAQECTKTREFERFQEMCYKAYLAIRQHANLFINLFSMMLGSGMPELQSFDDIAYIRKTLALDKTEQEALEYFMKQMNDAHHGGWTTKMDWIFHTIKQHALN
UniProt P19784, sequence (whole entry, looked up): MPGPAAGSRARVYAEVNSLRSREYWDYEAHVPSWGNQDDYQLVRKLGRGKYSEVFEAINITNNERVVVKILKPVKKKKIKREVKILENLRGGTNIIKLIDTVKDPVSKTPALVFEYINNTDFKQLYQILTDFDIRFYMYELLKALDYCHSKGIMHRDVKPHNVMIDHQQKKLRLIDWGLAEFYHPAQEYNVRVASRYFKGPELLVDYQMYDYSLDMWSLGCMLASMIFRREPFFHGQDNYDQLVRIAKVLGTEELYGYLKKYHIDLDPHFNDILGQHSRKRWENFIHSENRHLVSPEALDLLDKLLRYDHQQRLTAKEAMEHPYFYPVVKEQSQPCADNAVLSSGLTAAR
UniProt Q9H4B4, sequence (whole entry, looked up): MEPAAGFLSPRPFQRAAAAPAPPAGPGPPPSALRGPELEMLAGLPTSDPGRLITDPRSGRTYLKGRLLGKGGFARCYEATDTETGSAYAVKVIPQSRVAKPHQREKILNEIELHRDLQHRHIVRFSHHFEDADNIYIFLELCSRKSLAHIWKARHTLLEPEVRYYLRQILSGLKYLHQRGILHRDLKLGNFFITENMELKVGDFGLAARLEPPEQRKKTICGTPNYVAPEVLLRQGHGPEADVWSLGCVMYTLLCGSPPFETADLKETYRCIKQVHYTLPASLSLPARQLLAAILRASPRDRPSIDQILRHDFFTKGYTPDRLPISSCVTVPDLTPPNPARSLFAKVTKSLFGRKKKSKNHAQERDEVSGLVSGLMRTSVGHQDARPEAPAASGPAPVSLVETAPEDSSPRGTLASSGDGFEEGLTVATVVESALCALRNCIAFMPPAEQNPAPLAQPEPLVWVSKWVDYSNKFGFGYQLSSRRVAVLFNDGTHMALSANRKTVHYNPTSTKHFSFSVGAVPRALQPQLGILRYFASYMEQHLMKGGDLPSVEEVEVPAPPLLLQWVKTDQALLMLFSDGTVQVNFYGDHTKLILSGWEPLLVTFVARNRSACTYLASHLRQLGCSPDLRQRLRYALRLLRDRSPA
UniProt P07949, sequence (whole entry, unmodified, looked up): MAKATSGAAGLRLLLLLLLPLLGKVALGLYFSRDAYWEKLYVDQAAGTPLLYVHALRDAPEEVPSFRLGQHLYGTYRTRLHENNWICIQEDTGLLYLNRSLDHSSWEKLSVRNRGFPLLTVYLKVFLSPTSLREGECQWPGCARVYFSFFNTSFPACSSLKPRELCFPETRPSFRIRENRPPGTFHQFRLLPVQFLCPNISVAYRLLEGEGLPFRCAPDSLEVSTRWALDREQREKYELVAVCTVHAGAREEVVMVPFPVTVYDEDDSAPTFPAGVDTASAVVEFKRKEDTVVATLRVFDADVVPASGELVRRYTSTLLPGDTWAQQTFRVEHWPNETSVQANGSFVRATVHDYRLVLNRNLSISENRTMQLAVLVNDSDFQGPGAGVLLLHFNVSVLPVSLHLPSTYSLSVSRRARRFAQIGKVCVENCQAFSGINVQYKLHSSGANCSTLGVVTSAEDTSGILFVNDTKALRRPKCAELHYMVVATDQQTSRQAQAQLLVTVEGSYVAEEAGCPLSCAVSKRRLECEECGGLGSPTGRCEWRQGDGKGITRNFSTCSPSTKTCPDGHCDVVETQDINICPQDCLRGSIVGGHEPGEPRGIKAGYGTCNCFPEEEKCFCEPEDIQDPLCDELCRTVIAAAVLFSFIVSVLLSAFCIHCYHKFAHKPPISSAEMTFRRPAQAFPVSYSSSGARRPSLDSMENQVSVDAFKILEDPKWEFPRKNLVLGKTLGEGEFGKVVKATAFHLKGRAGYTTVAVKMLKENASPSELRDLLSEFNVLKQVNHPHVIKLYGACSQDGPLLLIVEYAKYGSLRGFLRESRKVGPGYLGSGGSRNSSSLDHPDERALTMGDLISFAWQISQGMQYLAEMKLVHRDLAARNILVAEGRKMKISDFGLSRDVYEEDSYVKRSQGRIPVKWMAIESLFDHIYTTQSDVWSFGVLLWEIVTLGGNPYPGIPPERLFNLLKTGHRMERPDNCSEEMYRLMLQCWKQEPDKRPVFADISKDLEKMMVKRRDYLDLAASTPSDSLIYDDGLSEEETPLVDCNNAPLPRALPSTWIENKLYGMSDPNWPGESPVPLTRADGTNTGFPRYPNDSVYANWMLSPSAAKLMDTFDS

Block 1 — observed: RNA clamping; method: fluorescence polarization; concentration: concentration not given; together with: FAM-labelled poly r(AG)8 RNA
Target: Eukaryotic initiation factor 4A-III (Homo sapiens, UniProt P38919)
UniProt P38919, sequence (whole entry, looked up): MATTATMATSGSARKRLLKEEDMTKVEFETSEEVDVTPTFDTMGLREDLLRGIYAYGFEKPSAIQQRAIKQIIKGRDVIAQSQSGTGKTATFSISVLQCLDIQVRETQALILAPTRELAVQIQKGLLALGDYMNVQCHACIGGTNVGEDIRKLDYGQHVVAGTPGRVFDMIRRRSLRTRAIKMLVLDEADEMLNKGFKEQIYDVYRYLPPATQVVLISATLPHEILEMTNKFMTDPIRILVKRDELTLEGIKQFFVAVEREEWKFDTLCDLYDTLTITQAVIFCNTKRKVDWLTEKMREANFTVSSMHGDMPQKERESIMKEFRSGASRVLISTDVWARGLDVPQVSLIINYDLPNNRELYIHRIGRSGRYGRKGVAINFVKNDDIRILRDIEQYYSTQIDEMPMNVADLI
Compound | fluorescence polarization change
CCCCN[C@@]12C(=O)[C@H](C(=O)OC)[C@@H](c3ccccc3)[C@]1(c1ccc(OC)cc1)Oc1cc(OC)cc(OC)c12 | 14.4 mP
COc1ccc([C@@]23Oc4cc(OC)cc(OC)c4[C@]2(O)c2nc(C4CCCCC4)[nH]c(=O)c2[C@H]3c2ccccc2)cc1 | 35 mP
COCCN[C@@]12c3nc(-c4ccccc4)[nH]c(=O)c3[C@@H](c3ccccc3)[C@]1(c1ccc(OC)cc1)Oc1cc(OC)cc(OC)c12 | 5.9 mP
COc1cc(OC)c2c(c1)N(C)[C@]1(c3ccc(Br)cc3)C(=O)[C@@]2(O)[C@H](c2ccccc2)[C@H]1c1ccccc1 | -8.6 mP
COC(=O)[C@H]1[C@@H](O)[C@@]2(O)c3c(OC)cc(OS(=O)(=O)c4ccc(C)cc4)cc3O[C@@]2(c2ccc(Br)cc2)[C@@H]1c1ccccc1 | 4.3 mP and 9.2 mP
COc1ccc([C@@]23Oc4cc(OC)cc(OC)c4[C@]2(O)[C@H](O)[C@H](CO)[C@H]3c2ccccc2)cc1 | 32.3 mP
COc1ccc([C@@]23Oc4cc(OC)cc(OC)c4[C@]2(O)[C@H](O)[C@H](C(=O)c2ccccc2)[C@H]3c2ccccc2)cc1 | 5.3 mP
COC(=O)[C@@H]1[C@@H](c2ccccc2)[C@]2(c3ccc(OC)cc3)Oc3cc(OC)cc(OC)c3[C@@]23NC(c2ccc(Br)cc2)=N[C@@]13O | 5.5 mP

Block 2 — concentration: 50 µM
Target: Bromodomain-containing protein 4, BD1 (BRD4, Homo sapiens, UniProt O60885)
Compound | inhibition
Cc1c(Cn2c(C)nc3c(C(=O)O)cc(N4CCOCC4)cc32)cccc1C(F)(F)F | 99.7%
Cc1cc2c(F)c(Oc3ncnn4cc(OC[C@@H](C)O)c(C)c34)ccc2[nH]1 | 86.1%
Cc1ccc(NC(=O)c2ccc(CN3CCN(C)CC3)cc2)cc1Nc1nc(-c2cccnc2)cs1 | 52.8%
O=C1NC(=O)[C@@H](c2cn3c4c(cccc24)CCC3)[C@@H]1c1c[nH]c2ccccc12 | 52.6%
COc1cc(N2CCC(N3CCN(C)CC3)CC2)ccc1Nc1ncc(Cl)c(Nc2ccccc2P(C)(C)=O)n1 | 27.4%
Cc1cccc(-c2nn3c(c2-c2ccnc4ccc(C(N)=O)cc24)CCC3)n1 | 34.5%
C[C@@H](Oc1ccc2[nH]nc(/C=C/c3cnn(CCO)c3)c2c1)c1c(Cl)cncc1Cl | 26%
Cc1[nH]c(/C=C2\C(=O)Nc3ccccc32)c(C)c1CCC(=O)O | 18.6%

Block 3 — method: competition with immobilised ligand; concentration: 1 µM
Compound: C[C@@H](c1cccc(C#N)c1)n1cc(Cl)cc(C(N)=O)c1=N
target | assay | remaining binding [%]
Serine/threonine-protein kinase NIM1 (NIM1K, Homo sapiens, UniProt Q8IY84) | cell-free assay | 97
Receptor-type tyrosine-protein kinase FLT3 (FLT3, Homo sapiens, UniProt P36888) | cell-free assay | 100
Homeodomain-interacting protein kinase 1 (HIPK1, Homo sapiens, UniProt Q86Z02) | cell-free assay | 79
Phosphatidylinositol 4,5-bisphosphate 3-kinase catalytic subunit alpha isoform (PIK3CA, Homo sapiens, UniProt P42336, I800L) | cell-free assay | 71
Protein-tyrosine kinase 2-beta (PTK2B, Homo sapiens, UniProt Q14289) | cell-free assay | 87
Casein kinase II subunit alpha' (CSNK2A2, Homo sapiens, UniProt P19784) | cell-free assay | 100
Tyrosine-protein kinase JAK1, JH1 (JAK1, Homo sapiens, UniProt P23458) | cell-free assay | 94
NUAK family SNF1-like kinase 1 (NUAK1, Homo sapiens, UniProt O60285) | cell-free assay | 89
Ribosomal protein S6 kinase alpha-1, C-terminal kinase domain (RPS6KA1, Homo sapiens, UniProt Q15418) | cell-free assay | 100
Proto-oncogene tyrosine-protein kinase receptor Ret (RET, Homo sapiens, UniProt P07949, V804M) | cell-free assay | 89
Activin receptor type-2B (ACVR2B, Homo sapiens, UniProt Q13705) | binding | 100
Serine/threonine-protein kinase PLK3 (PLK3, Homo sapiens, UniProt Q9H4B4) | cell-free assay | 89
Phosphatidylinositol 4,5-bisphosphate 3-kinase catalytic subunit alpha isoform (PIK3CA, Homo sapiens, UniProt P42336, H1047L) | cell-free assay | 96
STE20-like serine/threonine-protein kinase (SLK, Homo sapiens, UniProt Q9H2G2) | cell-free assay | 88
Dual specificity tyrosine-phosphorylation-regulated kinase 2 (DYRK2, Homo sapiens, UniProt Q92630) | cell-free assay | 98

Block 4 — mode: agonist
Target: Beta-1 adrenergic receptor (ADRB1, Homo sapiens, UniProt P08588)
UniProt P08588, sequence (whole entry, looked up): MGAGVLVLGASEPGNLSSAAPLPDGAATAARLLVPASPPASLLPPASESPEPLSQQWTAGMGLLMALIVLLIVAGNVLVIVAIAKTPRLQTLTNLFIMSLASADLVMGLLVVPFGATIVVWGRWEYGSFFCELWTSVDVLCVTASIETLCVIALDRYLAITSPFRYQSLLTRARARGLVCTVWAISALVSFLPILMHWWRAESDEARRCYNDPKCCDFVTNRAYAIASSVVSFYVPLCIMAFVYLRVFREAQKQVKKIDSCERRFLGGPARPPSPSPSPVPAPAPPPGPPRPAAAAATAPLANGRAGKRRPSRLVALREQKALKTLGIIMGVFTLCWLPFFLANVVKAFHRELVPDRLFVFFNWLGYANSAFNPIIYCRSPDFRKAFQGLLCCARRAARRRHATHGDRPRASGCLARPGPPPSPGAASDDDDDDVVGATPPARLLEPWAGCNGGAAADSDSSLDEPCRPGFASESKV
Compound | EC50 [µM]
CC(C)N(C)C(=O)c1cc(-c2cnc(C(C)(C)C)nc2)nc2cc(F)ccc12 | ≥ 100
c1ccc(-c2nc(NCc3cc4n(n3)CCCNC4)c3ccccc3n2)cc1 | ≥ 100
Cc1cc(-c2cc(-c3ccc(F)cc3)nc3c(C)noc23)ccn1 | ≥ 100
COc1ccccc1N1CCN([S+](=O)([O-])c2ccc(C)c(C)c2C)CC1 | ≥ 100
Cc1ccccc1Oc1cccc2c(=O)cc(N3CCOCC3)[nH]c12 | ≥ 100
O=c1ccn(Cc2cnn(-c3ccccc3)n2)c2ccccc12 | ≥ 100
O=C(Nc1nnc(-c2ccco2)o1)c1cc(-c2ccccc2)nc2ccccc12 | ≥ 100
COc1ccccc1N1CCN([S+](=O)([O-])c2cc(C)c(C)cc2OC)CC1 | ≥ 100
CN(C)c1cccc(NC(=O)C2=NO[C@@H]3CN(c4cccnc4)C[C@H]23)c1 | ≥ 100

Some of these lines once more (block 4):
Compound | EC50 [µM]
COc1ccccc1N1CCN([S+](=O)([O-])c2ccc(C)c(C)c2C)CC1 | ≥ 100
Cc1ccccc1Oc1cccc2c(=O)cc(N3CCOCC3)[nH]c12 | ≥ 100
O=c1ccn(Cc2cnn(-c3ccccc3)n2)c2ccccc12 | ≥ 100
O=C(Nc1nnc(-c2ccco2)o1)c1cc(-c2ccccc2)nc2ccccc12 | ≥ 100
COc1ccccc1N1CCN([S+](=O)([O-])c2cc(C)c(C)cc2OC)CC1 | ≥ 100
CN(C)c1cccc(NC(=O)C2=NO[C@@H]3CN(c4cccnc4)C[C@H]23)c1 | ≥ 100
